{"data": "Measured values collected from several papers", "note": "Protocols differ between the studies behind these lines. Values joined by “and” are separate records of one study, mostly repeats; a detail may differ. Numbers after ± are the reported error."}
{"Compound": "O=CCNCCOn1c(=O)n(OCCNCCO)c(=O)n(OCCNCCOn2c(=O)n(OCCNCCO)c(=O)n(OCCNCCO)c2=O)c1=O", "assay": "DPPH scavenging", "conditions": "62.5 µg/mL", "endpoint": "inhibition", "value": "11.1%"}
{"Compound": "COC1OC(C)C(OS(=O)(=O)O)C(OC2OC(C)C(OS(=O)(=O)O)C(OC3OC(C)C(OS(=O)(=O)O)C(OS(=O)(=O)O)C3O)C2O)C1O (stereo not shown)", "test system": "human plasma", "conditions": "128 µg/mL", "how to read": "reference: control", "endpoint": "thrombin time prolongation", "value": "0.9 fold"}
{"Compound": "CC[C@H](C)[C@H](NC(=O)[C@H](Cc1ccc(O)cc1)NC(=O)[C@H](CCC(=O)O)NC(=O)CNC(=O)[C@H](CCC(=O)O)NC(=O)[C@H](CCCCN)NC(=O)[C@H](CCCCN)NC(=O)[C@H](CC(=O)O)NC(=O)[C@H](Cc1c[nH]cn1)NC(=O)[C@H](Cc1c[nH]cn1)NC(=O)[C@H](Cc1c[nH]cn1)NC(=O)[C@H](Cc1c[nH]cn1)NC(=O)[C@H](Cc1c[nH]cn1)NC(=O)[C@H](Cc1c[nH]cn1)NC(=O)[C@H](Cc1c[nH]cn1)NC(=O)[C@H](Cc1c[nH]cn1)NC(=O)[C@H](Cc1c[nH]cn1)NC(=O)[C@@H](N)Cc1c[nH]cn1)C(=O)N[C@@H](CCCCN)C(=O)N[C@@H](CC(C)C)C(=O)N[C@@H](CCCCN)C(=O)N[C@H](C(=O)N[C@H](C(=O)NCC(=O)N[C@@H](CCC(N)=O)C(=O)N[C@@H](CC(=O)O)C(=O)N[C@@H](CO)C(=O)N[C@@H](CO)C(=O)N[C@@H](CCC(=O)O)C(=O)N[C@H](C(=O)N[C@@H](Cc1c[nH]cn1)C(=O)N[C@@H](Cc1ccccc1)C(=O)N[C@@H](CCCCN)C(=O)N[C@H](C(=O)N[C@@H](CCCCN)C(=O)N[C@@H](CCSC)C(=O)N[C@H](C(=O)N[C@H](C(=O)N[C@@H](Cc1c[nH]cn1)C(=O)N[C@@H](CC(C)C)C(=O)N[C@@H](CCCCN)C(=O)N[C@@H](CCCCN)C(=O)N[C@@H](CC(C)C)C(=O)N[C@@H](CCCCN)C(=O)N[C@@H](CCC(=O)O)C(=O)N[C@@H](CO)C(=O)N[C@@H](Cc1ccc(O)cc1)C(=O)N[C@@H](CS)C(=O)N[C@@H](CCC(N)=O)C(=O)N[C@@H](CCCNC(=N)N)C(=O)N[C@@H](CCC(N)=O)C(=O)O)[C@@H](C)O)[C@@H](C)O)C(C)C)[C@@H](C)CC)[C@@H](C)CC)C(C)C", "test system": "Drosophila α-synuclein A53T transgenic", "conditions": "120 µM, 1 day post eclosion, unit not given", "how to read": "reference: untreated", "endpoint": "climbing mean difference", "value": 2}
{"Compound": "CN1CCC[C@]1(C)/C=C/S(=O)(=O)NC(=O)Nc1c2c(cc3c1CCC3)CCC2", "test system": "human, whole blood ex vivo", "conditions": "100 mg twice daily, day 14, 12 h, multiple ascending dose, with: LPS and ATP", "endpoint": "IL-18 inhibition", "value": "100%"}
{"Compound": "Cc1ccc(N(O)/N=N/c2ccc(S(=O)(=O)Nc3nccs3)cc2)cc1", "assay": "carrageenan-induced paw edema", "test system": "Wistar rat", "conditions": "oral, 100 mg/kg, 0 h (baseline), with: carrageenan 1% subplantar", "how to read": "higher = more edema", "endpoint": "paw edema volume", "value": "3.4 ± 0.91 a.u."}
{"Compound": "COC1OC(C)C(OC2OC(C)C(O)C(OC3OC(C)C(O)C(OS(=O)(=O)O)C3OS(=O)(=O)O)C2OS(=O)(=O)O)C(OS(=O)(=O)O)C1OS(=O)(=O)O (stereo not shown)", "test system": "human plasma", "conditions": "128 µg/mL", "endpoint": "thrombin time", "value": "10.1 ± 0.8 s"}
{"Compound": "COC1CN([C@H]2CC[C@H]([C@@]3(C)Oc4c(Cl)cc(C(=O)NCc5c(SC)cc(C)[nH]c5=O)c(C)c4O3)CC2)C1", "assay": "RNA-seq, item: TMCC2 mouse homolog", "test system": "mouse, HT-1376 xenograft, whole blood", "conditions": "dose not given", "how to read": "reference: vehicle", "endpoint": "log2 fold change", "value": 1.46}
{"Compound": "COc1c(Cl)cccc1Nc1c(-c2ccncc2C#C[C@@]2(C)CCCN2C(=O)/C=C/CN(C)C)[nH]c2c1C(=O)NCC2", "test system": "male NSG mouse, PDX", "conditions": "25 mg/kg once daily, 42 days, EGFR SVD", "endpoint": "tumour growth inhibition", "value": "98.2%"}
{"Compound": "COc1cc2c(NC3CCN(C(C)C)CC3)cc(N3CCOCC3)nc2cc1OCCCN1CCCC1", "assay": "TMT quantitative proteomics, item: ALDOA", "test system": "APP AD model mice, hippocampus", "conditions": "dose not given", "endpoint": "normalised protein abundance", "value": "0.0405 and 0.0222 and 0.0649 and 0.296 and 0.0604 and -0.0326 and -0.0162 and 0.042"}
{"Compound": "COc1cc(O)ccc1CCC(c1ccc(O)cc1)c1cc2c(c(C)c1O)OC(c1ccc(O)cc1)CC2 (mixture of isomers)", "assay": "item: PGE2", "test system": "human blood", "conditions": "0.3 µM, with: Escherichia coli stimulation", "endpoint": "lipid mediator level", "value": "952 ± 476 pg/mL blood"}
{"Compound": "COC1OC(C)C(OS(=O)(=O)O)C(OC2OC(C)C(OS(=O)(=O)O)C(OC3OC(C)C(OS(=O)(=O)O)C(OC4OC(C)C(OS(=O)(=O)O)C(OC5OC(C)C(OS(=O)(=O)O)C(OC6OC(C)C(OS(=O)(=O)O)C(OC7OC(C)C(OS(=O)(=O)O)C(OC8OC(C)C(OS(=O)(=O)O)C(OS(=O)(=O)O)C8O)C7O)C6O)C5O)C4O)C3O)C2O)C1O (stereo not shown)", "test system": "human plasma", "conditions": "128 µg/mL", "endpoint": "thrombin time", "value": "10.1 ± 0.5 s"}
{"Compound": "CC(C)C[C@H](NC(=O)CNC(=O)[C@H](CCC(N)=O)NC(=O)[C@H](CC(C)C)NC(=O)[C@H](CC(C)C)NC(=O)[C@H](CCCNC(=N)N)NC(=O)[C@H](CCC(N)=O)NC(=O)[C@H](CC(C)C)NC(=O)[C@H](CCCNC(=N)N)NC(=O)[C@H](C)NC(=O)CNC(=O)[C@H](CCC(=O)O)NC(=O)[C@H](CCCNC(=N)N)NC(=O)[C@H](CC(C)C)NC(=O)[C@H](CCCNC(=N)N)NC(=O)[C@H](CO)NC(=O)[C@H](CC(C)C)NC(=O)[C@H](CCC(=O)O)NC(=O)[C@H](CO)NC(=O)[C@@H](NC(=O)[C@H](Cc1ccccc1)NC(=O)[C@@H](NC(=O)CNC(=O)[C@H](CC(=O)O)NC(=O)C(C)(C)NC(=O)[C@@H](N)Cc1c[nH]cn1)[C@@H](C)O)[C@@H](C)O)C(=O)N[C@@H](CC(C)C)C(=O)N[C@@H](CCC(N)=O)C(=O)NCC(=O)N[C@@H](CC(C)C)C(=O)N[C@H](C(=O)NCC(=O)N[C@@H](CCCCNC(=O)COCCOCCNC(=O)COCCOCCNC(=O)CC[C@H](NC(=O)CCCCCCCCCCCCCCCCC(=O)O)C(=O)O)C(N)=O)C(C)C", "test system": "DIO C57BL/6J mice", "conditions": "dose not given, from day 28, with: GLP-1R agonist co-treatment", "endpoint": "dark-phase energy expenditure", "value": "increased"}
{"Compound": "COC1OC(C)C(OC2OC(C)C(O)C(OC3OC(C)C(OC4OC(C)C(O)C(OC5OC(C)C(OC6OC(C)C(O)C(OC7OC(C)C(O)C(OS(=O)(=O)O)C7OS(=O)(=O)O)C6OS(=O)(=O)O)C(OS(=O)(=O)O)C5OS(=O)(=O)O)C4OS(=O)(=O)O)C(OS(=O)(=O)O)C3OS(=O)(=O)O)C2OS(=O)(=O)O)C(OS(=O)(=O)O)C1OS(=O)(=O)O (stereo not shown)", "test system": "human plasma", "conditions": "128 µg/mL", "how to read": "reference: control", "endpoint": "thrombin time prolongation", "value": "1 fold"}
{"Compound": "COc1cnc2cccc(N3CCc4c(cc(Cn5ccnc5)cc4-c4cn(C)nc4C(F)(F)F)C3=O)c2c1", "test system": "BALB/c nude mice, MV4-11 xenograft", "conditions": "intraperitoneal, 100 mg/kg, day 14", "endpoint": "tumour volume", "value": "202 mm3 and 207 mm3 and 189 mm3 and 147 mm3"}
{"Compound": "COC1OC(C)C(OC2OC(C)C(OS(=O)(=O)O)C(OC3OC(C)C(OC4OC(C)C(OS(=O)(=O)O)C(OC5OC(C)C(OC6OC(C)C(OS(=O)(=O)O)C(OC7OC(C)C(OC8OC(C)C(OS(=O)(=O)O)C(OS(=O)(=O)O)C8O)C(OS(=O)(=O)O)C7O)C6O)C(OS(=O)(=O)O)C5O)C4O)C(OS(=O)(=O)O)C3O)C2O)C(OS(=O)(=O)O)C1O (stereo not shown)", "test system": "human plasma", "conditions": "128 µg/mL", "endpoint": "thrombin time", "value": "10.8 ± 0.8 s"}
{"Compound": "COc1ccc(C(=O)CCc2cc(C(CCc3ccc(O)cc3OC)c3ccc(O)cc3)c(O)cc2OC)cc1 (racemic)", "test system": "human blood", "conditions": "10 µM, with: A23187", "endpoint": "PGE2 level", "value": "44 ± 14 pg/mL"}
{"note": "Repeated from above:"}
{"Compound": "COc1ccc(C(=O)CCc2cc(C(CCc3ccc(O)cc3OC)c3ccc(O)cc3)c(O)cc2OC)cc1 (racemic)", "test system": "human blood", "conditions": "10 µM, with: A23187", "endpoint": "PGE2 level", "value": "44 ± 14 pg/mL"}
{"Compound": "Cc1ccc(N(O)/N=N/c2ccc(S(=O)(=O)Nc3nccs3)cc2)cc1", "assay": "carrageenan-induced paw edema", "test system": "Wistar rat", "conditions": "oral, 100 mg/kg, 0 h (baseline), with: carrageenan 1% subplantar", "how to read": "higher = more edema", "endpoint": "paw edema volume", "value": "3.4 ± 0.91 a.u."}
